Assay results pooled from the literature.
Numbers after ± are the reported error.

NNC(=O)Cn1c2ccccc2c2cn[nH]c(=O)c21 — fold change (MCF7; RT-PCR, item: PI3K; 5 µM, 48 h, normalised to β-actin; relative to: untreated): 0.316
c1ccc(CCN2CCCCC2)cc1 — Ki (NMDA receptor, rat; binding; rat brain; 60 min, 4 °C, together with: [3H]TCP 5 nM): > 10 µM
CC(=O)N[C@@H](CC(C)C)C(=O)NCC(=O)N[C@@H](Cc1ccc(O)cc1)C(=O)NCC(=O)N[C@@H](CCCCN)C(N)=O — transition enthalpy (DSC; SOPC/cholesterol 7/3 bilayers; 15 mol%, pH 7.40): 1.2 kcal/mol
acyline — serum DHT (human men; sc, 300 µg/kg, 24 h): 9.9 ± 5.4 ng/dL
CCCCCC(O)C=CC=O (stereo not shown) — log k (reaction with cysteine thiol; pH 7.4, corrected for thiolate fraction): 1.76
Cc1ccc2cc3c(ccc4ccccc43)c3c2c1CC3 — menadione reductase activity (inducer; female rat, liver; oral, 1 mg, 24 h, sesame oil vehicle): 51.2 enzyme units
Cc1cccc(Cn2cc(COCc3cnc(C)c(O)c3CO)nn2)c1 — absorbance change (Zn2+ chelation; 100 µM, 30 min, 37 °C, together with: Zn2+ 100 µM): 0%
N=C(N)NCCC[C@@H]1NC(=O)[C@H](CCCCNC(=O)[C@H](CC(=O)O)NC(=O)[C@H](CC(=O)O)NC(=O)[C@H](CC(=O)O)NC(=O)CC[C@H](NC(=O)CCOCCOCCOCCOCCNC(=O)c2ccc(NN)nc2)C(=O)N[C@@H](CC(=O)O)C(=O)N[C@@H](CC(=O)O)C(=O)N[C@@H](CC(=O)O)C(=O)NCCCC[C@@H]2NC(=O)[C@@H](Cc3ccccc3)NC(=O)[C@H](CC(=O)O)NC(=O)CNC(=O)[C@H](CCCNC(=N)N)NC2=O)NC(=O)[C@@H](Cc2ccccc2)NC(=O)[C@H](CC(=O)O)NC(=O)CNC1=O [technetium-99m labelled] — tissue uptake (γ-counting; female athymic nude mice, U-87 MG xenograft, intestine; intravenous, 2 h): 4.74 ± 0.33 %ID/g
CC(=O)N[C@@H](CC(C)C)C(=O)N1CCC[C@H]1C(=O)N[C@@H](Cc1ccc(O)cc1)C(=O)N1CCC[C@H]1C(=O)N[C@@H](CCCCN)C(N)=O — transition enthalpy (DSC; SOPC/cholesterol 6/4 bilayers; 10 mol%, pH 7.40): 0.3 kcal/mol
CCCCCCCCCCCCCC(=O)O[C@@H]1[C@@H](C)[C@@]2(O)[C@@H](C=C(CO)C[C@]3(O)C(=O)C(C)=C[C@@H]23)[C@@H]2C(C)(C)[C@]12OC(C)=O — Yes phosphorylation (item: Yes pY416; rat; 1 µM, 2.5 min, no PKC inhibitor; relative to: control): 369 ± 41%
C[C@@H]1NC(C)(C)CO[C@@]1(O)c1cccc(Cl)c1 — ED50 (nicotine antinociception blockade, antagonist, tail-flick test; mouse; 15 min pretreatment, together with: nicotine 2.5 mg/kg subcutaneous): 0.2 mg/kg
CNC(C)Cc1ccc2c(c1)OCO2 (racemic) — subjective drug effect rating (Drug Effects Questionnaire, item: Dislike Drug; human; oral, 0.75 mg/kg, mean over session, unit not given; relative to: pre-dose baseline): 12.8
Cc1ccc(NC(=S)NS(=O)(=O)c2cnc(NN)[nH]c2=O)cc1 — glucose AUC (oral glucose tolerance test; HFD/STZ type 2 diabetic rat; oral, 10 mg/kg, together with: glucose 1 g/kg): 462 ± 35.6 mg·min/dL
C[C@]12N3Cc4c(c(OCCCS(=O)(=O)[O-])c5ccccc5c4OCCCS(=O)(=O)[O-])CN1C(=O)N1CN4C(=O)N5CN6C(=O)N7CN8C(=O)N9Cc%10c(c(OCCCS(=O)(=O)[O-])c%11ccccc%11c%10OCCCS(=O)(=O)[O-])CN%10C(=O)N(CN%11C(=O)N(CN%12C(=O)N(CN(C3=O)[C@]12C)[C@@H]4[C@H]%125)[C@@H]6[C@H]%117)[C@]8(C)[C@@]9%10C.[Na+].[Na+].[Na+].[Na+] — time to recovery of righting reflex (Sprague-Dawley rat; intravenous, 80 mg/kg/min from 3 min, together with: ketamine 30 mg/kg i.v.): 6 ± 0.7 min
CN[C@@](C)(C[18F])C(=O)O — tracer uptake (SK-OV-3 tumour model; host not given, bone; 2 h, tumour-bearing): 2 %ID/g
atrial natriuretic peptide — ejection fraction (echocardiography; male Wistar rat, high-fat/STZ type 2 diabetes; subcutaneous osmotic pump, 2 pmol/kg/min, 6 weeks): ~82%
C[C@H]1CNCCc2ccc(Cl)cc21 — plasma concentration (Sprague-Dawley rat, male, plasma; subcutaneous, 1 mg/kg, 180 min): 6.11 ± 0.48 ng/mL
C=C[C@H]1[C@H]2CCC[C@]1(c1cccc(C(N)=O)c1)CCN2CCc1ccccc1 — effective dose (pain-depressed locomotion; mice; subcutaneous, together with: intraperitoneal 0.56% lactic acid; relative to: vehicle): 10 to 18 mg/kg
CNC(C)C1CCC(N)C(OC2C(N)CC(N)C(OC3OCC(C)(O)C(NC)C3O)C2O)O1 (stereo not shown) — IC50 ([14C]-phenylalanine incorporation, inhibitor, (UUU)12-directed cell-free translation; M. smegmatis 70S ribosomes, Leishmania/Trypanosoma hybrid decoding site; 60 min, 37 °C): > 500 µM
CC(C)c1ccc2c(c1)CC[C@H]1[C@](C)(CN)CCC[C@]21C — IC50 (WM278.1 melanoma (vertical growth phase); cell viability, MTS; 48 h): 4.04 ± 0.04 µM
CCOC(=O)C1=C(C)NC(=S)NC1c1ccccc1C#N (stereo not shown) — mean arterial pressure (carotid artery cannulation; male Wistar rats, anaesthetised; 0.3 mL, 3 h): 22.5 ± 1.11 mm Hg
O=c1c2ccccc2nc2n1c1nc(-c3ccccc3)cc(-c3ccc4ccccc4n3)c1c1nc3ccccc3c(=O)n12 — IC50 (DPPH scavenging, absorbance; 30 min): 124 µM

Repeated from above:
Cc1cccc(Cn2cc(COCc3cnc(C)c(O)c3CO)nn2)c1 — absorbance change (Zn2+ chelation; 100 µM, 30 min, 37 °C, together with: Zn2+ 100 µM): 0%
N=C(N)NCCC[C@@H]1NC(=O)[C@H](CCCCNC(=O)[C@H](CC(=O)O)NC(=O)[C@H](CC(=O)O)NC(=O)[C@H](CC(=O)O)NC(=O)CC[C@H](NC(=O)CCOCCOCCOCCOCCNC(=O)c2ccc(NN)nc2)C(=O)N[C@@H](CC(=O)O)C(=O)N[C@@H](CC(=O)O)C(=O)N[C@@H](CC(=O)O)C(=O)NCCCC[C@@H]2NC(=O)[C@@H](Cc3ccccc3)NC(=O)[C@H](CC(=O)O)NC(=O)CNC(=O)[C@H](CCCNC(=N)N)NC2=O)NC(=O)[C@@H](Cc2ccccc2)NC(=O)[C@H](CC(=O)O)NC(=O)CNC1=O [technetium-99m labelled] — tissue uptake (γ-counting; female athymic nude mice, U-87 MG xenograft, intestine; intravenous, 2 h): 4.74 ± 0.33 %ID/g
CC(=O)N[C@@H](CC(C)C)C(=O)N1CCC[C@H]1C(=O)N[C@@H](Cc1ccc(O)cc1)C(=O)N1CCC[C@H]1C(=O)N[C@@H](CCCCN)C(N)=O — transition enthalpy (DSC; SOPC/cholesterol 6/4 bilayers; 10 mol%, pH 7.40): 0.3 kcal/mol
CCCCCCCCCCCCCC(=O)O[C@@H]1[C@@H](C)[C@@]2(O)[C@@H](C=C(CO)C[C@]3(O)C(=O)C(C)=C[C@@H]23)[C@@H]2C(C)(C)[C@]12OC(C)=O — Yes phosphorylation (item: Yes pY416; rat; 1 µM, 2.5 min, no PKC inhibitor; relative to: control): 369 ± 41%
